{"data": "Measurements gathered from unrelated publications", "organism": "Staphylococcus aureus"}
{"SMILES": "Oc1c(Br)cc(Br)c2nc3cc(Cl)ccc3nc12", "test": "broth microdilution", "test system": "MRSA 44", "conditions": "16 h, 37 °C", "MIC": "0.1 µM"}
{"SMILES": "CC(C)C[C@@H](NC(=O)[C@@H](CCCNC(=N)N)NC(=O)[C@H](N)CCCNC(=N)N)C(=O)N[C@H](CC(C)C)C(=O)N[C@H](CCCNC(=N)N)C(=O)N[C@H](CCCCN)C(=O)N[C@H](CC(C)C)C(=O)N[C@H](CCCCN)C(=O)NCC(=O)N[C@H](CCCCN)C(=O)N[C@H](CCCCN)C(=O)N[C@H](CC(C)C)C(=O)N[C@H](Cc1ccc(O)cc1)C(=O)N[C@H](CC(C)C)C(=O)N[C@H](Cc1ccc(O)cc1)C(=O)N[C@H](Cc1ccccc1)C(=O)N[C@H](CCCCN)C(=O)N[C@H](CC(C)C)C(=O)N[C@H](CCC(N)=O)C(=O)N[C@H](CC(C)C)C(=O)N[C@H](CC(C)C)C(=O)N[C@H](CCCCN)C(=O)N[C@H](CCCCN)C(N)=O", "test system": "KCTC 1621, Mueller-Hinton broth", "conditions": "with: 4.5 mM KCl", "MIC": "16 µM"}
{"SMILES": "CC[C@H](C)[C@H](NC(=O)[C@H](CCCCN)NC(=O)[C@@H](NC(=O)[C@@H](NC(=O)[C@H](CC(C)C)NC(=O)[C@H](CCCNC(=N)N)NC(=O)[C@@H](NC(=O)[C@H](CC(C)C)NC(=O)[C@H](CCCNC(=N)N)NC(=O)CNC(=O)[C@H](Cc1ccccc1)NC(=O)[C@@H](N)CCCNC(=N)N)[C@@H](C)CC)[C@@H](C)CC)C(C)C)C(=O)N[C@@H](C)C(=O)N[C@@H](CCCNC(=N)N)C(=O)N[C@@H](CCCNC(=N)N)C(=O)N[C@@H](C)C(=O)N[C@@H](Cc1c[nH]cn1)C(=O)N[C@@H](CCCNC(=N)N)C(=O)N[C@@H](C)C(=O)N[C@@H](CCCNC(=N)N)C(=O)N[C@@H](CO)C(=O)N[C@@H](C)C(=O)N[C@H](C(=O)N[C@@H](CCCCN)C(=O)N[C@@H](C)C(=O)N[C@@H](C)C(=O)N[C@@H](CO)C(=O)N[C@@H](CC(N)=O)C(=O)N[C@H](C(=O)N[C@@H](C)C(=O)N[C@@H](C)C(=O)N[C@@H](CC(C)C)C(=O)N[C@@H](C)C(=O)N[C@@H](Cc1c[nH]cn1)C(=O)NCC(=O)N[C@@H](C)C(=O)O)C(C)C)C(C)C", "test": "broth microdilution", "conditions": "18 h, 37 °C", "MIC": "1.03 µM"}
{"SMILES": "CN[C@H](CC(C)C)C(=O)N[C@H]1C(=O)N[C@@H](CC(N)=O)C(=O)N[C@H]2C(=O)N[C@H]3C(=O)N[C@H](C(=O)N[C@H](C(=O)N[C@@H](CCCNC(=N)N)C(N)=O)c4cc(O)cc(O)c4-c4cc3ccc4O)[C@H](O)c3ccc(c(Cl)c3)Oc3cc2cc(c3O[C@@H]2O[C@H](CO)[C@@H](O)[C@H](O)[C@H]2O[C@H]2C[C@](C)(NCc3ccc(OCc4cn(CC(=O)N[C@H](C(=O)N[C@@H](CCN)C(=O)N[C@H]5CCNC(=O)[C@H]([C@@H](C)O)NC(=O)[C@H](CCN)NC(=O)[C@H](CCN)NC(=O)[C@H](CC(C)C)NC(=O)[C@@H](CC(C)C)NC(=O)[C@H](CCN)NC5=O)[C@@H](C)O)nn4)c(OC)c3)[C@H](O)[C@H](C)O2)Oc2ccc(cc2Cl)[C@H]1O", "test system": "MSSA ATCC 29213", "MIC": "0.358 µM"}
{"SMILES": "CC[C@H](C)[C@H](NC(=O)[C@@H]1CCCN1C(=O)CNC(=O)[C@H](CC(C)C)NC(=O)[C@H](CCCCN)NC(=O)[C@H](CCCNC(=N)N)NC(=O)[C@H](Cc1c[nH]c2ccccc12)NC(=O)[C@H](C)NC(=O)[C@H](CC(N)=O)NC(=O)[C@H](CCCCN)NC(=O)[C@H](CC(C)C)NC(=O)[C@H](CCCCN)NC(=O)[C@H](CC(N)=O)NC(=O)[C@H](CCCNC(=N)N)NC(=O)[C@H](C)NC(=O)[C@H](CCCNC(=N)N)NC(=O)[C@H](CCCNC(=N)N)NC(=O)[C@H](Cc1ccccc1)NC(=O)[C@H](Cc1c[nH]c2ccccc12)NC(=O)CN)C(=O)N[C@H](C(=O)NCC(=O)N1CCC[C@H]1C(=O)N[C@@H](CC(C)C)C(=O)N[C@@H](CC(C)C)C(=O)N[C@H](C(=O)N[C@@H](CCCNC(=N)N)C(=O)O)[C@@H](C)O)C(C)C", "test": "broth microdilution", "test system": "ATCC 29213, Mueller-Hinton broth", "conditions": "16 to 20 h, 37 °C", "MIC": "8.79 µg/mL"}
{"SMILES": "CC(C)CCCCCCCCC/C=C/C(=O)N[C@@H](CC(=O)O)C(=O)N[C@H]1CNC(=O)[C@@H]2CCCN2C(=O)[C@H](C(C)C)NC(=O)[C@@H](CN)NC(=O)CNC(=O)[C@H](CC(=O)O)NC(=O)CNC(=O)[C@H](CC(=O)O)NC(=O)[C@H](CC(=O)O)NC(=O)[C@H]2CCCCN2C1=O", "test": "broth microdilution", "test system": "VISA LIM strain 2, Mueller-Hinton broth, Mg2+ 10 mg/L", "conditions": "16 h, with: Ca2+ 0 mM", "MIC": "> 128 µg/mL"}
{"SMILES": "CC[C@H](C)[C@H](NC(=O)[C@@H](CCCNC(=N)N)NC(=O)[C@H](CCCNC(=N)N)NC(=O)[C@H](Cc1c[nH]cn1)NC(=O)[C@H](Cc1c[nH]c2ccccc12)NC(=O)[C@H](CCCNC(=N)N)NC(=O)[C@@H]1CCCN1C(=O)[C@H](CCCNC(=N)N)NC(=O)[C@@H]1CCCN1C(=O)[C@H](CC(C)C)NC(=O)[C@H](Cc1ccc(O)cc1)NC(=O)[C@@H]1CCCN1C(=O)[C@@H]1CCCN1C(=O)[C@H](CCCCN)NC(=O)[C@H](CC(=O)O)NC(=O)[C@@H](N)C(C)C)C(=O)N[C@@H](Cc1ccc(O)cc1)C(=O)N[C@@H](CC(N)=O)C(=O)N[C@H](CCCNC(=N)N)C(N)=O", "test": "broth microdilution", "test system": "DSM 6247", "conditions": "18 h, 37 °C, 25% MHB2", "MIC": "64 µg/mL"}
{"SMILES": "N=C(N)NCCC[C@@H]1NC(=O)[C@@H](CCCNC(=N)N)NC(=O)[C@H](CCCNC(=N)N)NC(=O)[C@@H](C(c2ccccc2)c2ccccc2)NC(=O)[C@@H](C(c2ccccc2)c2ccccc2)NC(=O)[C@@H](C(c2ccccc2)c2ccccc2)NC(=O)[C@@H](CCCNC(=N)N)NC1=O", "test system": "1193193, MRSA", "MIC": "4 µg/mL"}
{"SMILES": "CN[C@H](CC(C)C)C(=O)N[C@H]1C(=O)N[C@@H](CC(N)=O)C(=O)N[C@H]2C(=O)N[C@H]3C(=O)N[C@H](C(=O)N[C@H](C(=O)NCC(N)=O)c4cc(O)cc(O)c4-c4cc3ccc4O)[C@H](O)c3ccc(c(Cl)c3)Oc3cc2cc(c3O[C@@H]2O[C@H](CO)[C@@H](O)[C@H](O)[C@H]2O[C@H]2C[C@](C)(NCc3ccc(OCc4cn(CC(=O)N[C@H](C(=O)N[C@@H](CCN)C(=O)N[C@H]5CCNC(=O)[C@H]([C@@H](C)O)NC(=O)[C@H](CCN)NC(=O)[C@H](CCN)NC(=O)[C@H](CC(C)C)NC(=O)[C@@H](CC(C)C)NC(=O)[C@H](CCN)NC5=O)[C@@H](C)O)nn4)c(OC)c3)[C@H](O)[C@H](C)O2)Oc2ccc(cc2Cl)[C@H]1O", "test system": "VRSA 2 vanA", "MIC": "> 48 µM"}
{"SMILES": "CCC(CC)c1cc(C2CN3CCC2CC3CNC)nc(-c2ccncc2)n1 (stereo not shown)", "test": "microbial growth, broth dilution", "test system": "ATCC29213", "MIC": "64 µg/mL"}
{"SMILES": "CCn1c(-c2ccc(F)cc2)c(-c2ccc(F)cc2)n(CC)c1=[Se]", "test": "microbial growth, broth dilution", "test system": "ATCC700699 VISA", "conditions": "24 h, drug-resistant strain", "MIC": "> 40 µM"}
{"SMILES": "CN[C@@H]1[C@H](O)[C@H](NC)[C@H]2O[C@]3(O)[C@H](O[C@@H]2[C@H]1O)O[C@H](C)C[C@H]3NC(=O)Cc1ccccc1", "test": "microbial growth, broth dilution", "test system": "8325", "MIC": "100 µg/mL"}
{"SMILES": "CC[C@H]1OC(=O)[C@H](C)[C@@H](OC(=O)Cc2ccccc2)[C@H](C)[C@@H](O[C@@H]2O[C@H](C)C[C@H](N(C)C)[C@H]2O)[C@](C)(OC)C[C@@H](C)C(=O)[C@H](C)[C@@H](O)[C@]1(C)O", "test system": "ATCC 43300 MRSA", "MIC": "> 256 µg/mL"}
